Results collected from several papers.
Every numbered part comes from another study and shows a few of its results, in no order.

Series 1
Target: RNA binding protein fox-1 homolog 2, RRM domain, GST-SBP tag (RBFOX2, Homo sapiens, UniProt O43251-10, residues 100-194)
Method: RNA Bind-n-Seq
Form: RNA
Matrix: in vitro
Tested at: 365 nM
Setting: natural RNA segment, single round, ends assumed
Reference: no-protein control
Direction: higher = stronger binding
Construct (chain): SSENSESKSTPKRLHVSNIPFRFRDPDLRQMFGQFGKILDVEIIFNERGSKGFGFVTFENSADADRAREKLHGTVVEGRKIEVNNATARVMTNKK
Oligonucleotide	RBNS enrichment (R)
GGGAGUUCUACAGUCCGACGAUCAGAGUCAAGCUAAAGCUACCACCUUGGGGUGAGCCCUACAGAAGGUUCAGACCCGGGCAGCUCAGCUACCUCCUUCUACAUGGAGGUGGCCCUGGUCCCACCUCUAAUCCUGGAAUUCUCGGGUGCCAA	0.23
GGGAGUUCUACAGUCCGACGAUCAUCAAACACUGAAUCUUUUAUGUGAGCAGCUUAAGAAAAUAAAAGGAAAAGCCUUGCACUAGCACUCAGAGGGCUGCCCUGUGUGGAUACUGUCAUCUUGCAAUGGUUUAUGGAAUUCUCGGGUGCCAA	0.667
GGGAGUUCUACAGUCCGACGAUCCCUCGGAAUGUCUGAGAAGGGAUAAUUUCAUUUCUAAAAGCUCUGAGCACCGUGAGUUUGAUCUCGAGAUGAUCAUGUUUGAGCGAUGUAAAGUGCCCAAGAUCCUGCACUGGAAUUCUCGGGUGCCAA	1.34
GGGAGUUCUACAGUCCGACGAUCACUGUUUCAGUAGCCAAUCCUCUUUCUUAGUAUAUGAAAGGACAGGGAUUUUUGUUCUUGUUGUUCUCGUUGUUGUUUUAAGUUUACUGGGGAAAGUGCAUUUGGCCAAAUGGAAUUCUCGGGUGCCAA	1.27
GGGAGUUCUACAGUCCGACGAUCGGCUAGAACGAGAGUGCCUCCCCUUCUUGUGUCCUGGCUGGCUGGGAUGCUGGUGGCUCUUCAGAGGAGCAUCAGCUGUCUGUCAUCUGCUGCGAUCCGGCAGCCUCUCUUGGAAUUCUCGGGUGCCAA	0.33
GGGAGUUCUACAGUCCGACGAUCCUCUGGGAAGCUCUUCCUCCUGCCCCUCCCAUUCCUGGUGGGGGCAGAGGAGUGUCUGCAGGGAAACAGCUUCUCCUCUGCCCCGAUGGAUGCUUUAUUUGGAUGGCCUGUGGAAUUCUCGGGUGCCAA	0.566
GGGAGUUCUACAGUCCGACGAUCAACUGGGGAAGCUUCUGUACUAGUCUCCUUCAACGCAGCUGGCUUUGACUGAGUGCUUUGACAGUUUGAGACUUCACCAAGUAUAGUAGAAAAACAAAUGGCCUCAACUUUGGAAUUCUCGGGUGCCAA	0.235
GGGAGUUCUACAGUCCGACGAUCCUCCGAAGACUUAGCGACGCCACUGGCGGCACCUUCUCCUGCGCCCAGUGAUGUUUCCACGGUGCCUGUACACAGCCGAGCAGCAUUUCCGUUGAAGGACUUGCAUCCCCUGGAAUUCUCGGGUGCCAA	0.394

Series 2
Target: PABPC1L2, full length, GST fusion (mouse, UniProt A0ABA7IW68)
Method: RNAcompete
Form: RNA
Matrix: in vitro
Tested at: 20 nM
Setting: 7-mer, probes averaged, single round
Reference: mean of 7-mers
Direction: higher = stronger binding
Residues (chain): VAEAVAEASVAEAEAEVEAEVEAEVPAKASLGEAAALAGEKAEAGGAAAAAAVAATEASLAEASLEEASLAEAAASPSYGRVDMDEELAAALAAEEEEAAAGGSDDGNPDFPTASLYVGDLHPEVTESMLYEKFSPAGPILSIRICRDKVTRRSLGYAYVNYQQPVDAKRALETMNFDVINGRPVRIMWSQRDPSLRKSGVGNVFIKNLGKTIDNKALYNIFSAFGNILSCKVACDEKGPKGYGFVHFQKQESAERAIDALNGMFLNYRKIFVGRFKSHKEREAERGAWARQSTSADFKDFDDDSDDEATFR
Oligonucleotide	7-mer Z-score
GAGGACC	0.258
CGUCACA	-0.139
CGUUAUG	-0.349
CGUUGGC	-0.233
UUUACUU	-0.139
GUGUCAC	-0.148
UUUUUUC	-0.24
GUGGACG	0.245

Other studies, line by line
Structure (SMILES)	target or system	test	system	conditions	how to read	measurement	value
Cn1cncc1[C@@](O)(COc1ccc(C#N)cc1-c1ccc(OC(F)(F)F)cc1)c1ccc(C#N)cc1	normal adjacent epithelium patient-derived organoids	CellTiter-Glo	–	1 µM, mean of five organoid lines	reference: DMSO	viability	89.2%
O=C1CSC(Nc2cccc(C(F)(F)F)c2)=N1	–	–	mouse, microsomes or S9	2 µM, 0.5 h	–	remaining compound	39.5%

Repeated from above (series 1):
Oligonucleotide	RBNS enrichment (R)
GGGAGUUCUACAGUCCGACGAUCCUCUGGGAAGCUCUUCCUCCUGCCCCUCCCAUUCCUGGUGGGGGCAGAGGAGUGUCUGCAGGGAAACAGCUUCUCCUCUGCCCCGAUGGAUGCUUUAUUUGGAUGGCCUGUGGAAUUCUCGGGUGCCAA	0.566
